# Measured values collected from several papers.
# Numbers after ± are the reported error.
SMILES,target or system,assay,test system,conditions,how to read,endpoint,result
CC[C@H](C)[C@H](NC(=O)[C@H](CC(C)C)NC(=O)[C@H](Cc1c[nH]c2ccccc12)NC(=O)[C@H](CCC(N)=O)NC(=O)[C@@H](NC(=O)[C@H](Cc1ccccc1)NC(=O)[C@H](C)NC(=O)[C@H](CCCCNC(=O)COCCOCCNC(=O)COCCOCCNC(=O)CC[C@H](NC(=O)CCCCCCCCCCCCCCCCCCC(=O)O)C(=O)O)NC(=O)[C@H](CCC(N)=O)NC(=O)[C@H](C)NC(=O)[C@@H](NC(=O)[C@H](CCCCN)NC(=O)[C@H](CC(=O)O)NC(=O)[C@H](CC(C)C)NC(=O)C(C)(C)NC(=O)[C@@H](NC(=O)[C@H](CO)NC(=O)[C@H](Cc1ccc(O)cc1)NC(=O)[C@H](CC(=O)O)NC(=O)[C@H](CO)NC(=O)[C@@H](NC(=O)[C@H](Cc1ccccc1)NC(=O)[C@@H](NC(=O)CNC(=O)[C@H](CCC(=O)O)NC(=O)C(C)(C)NC(=O)[C@@H](N)Cc1ccc(O)cc1)[C@@H](C)O)[C@@H](C)O)[C@@H](C)CC)[C@@H](C)CC)C(C)C)C(=O)N[C@@H](C)C(=O)NCC(=O)NCC(=O)N1CCC[C@H]1C(=O)N[C@@H](CO)C(=O)N[C@@H](CO)C(=O)NCC(=O)N[C@@H](C)C(=O)N1CCC[C@H]1C(=O)N1CCC[C@H]1C(=O)N1CCC[C@H]1C(=O)N[C@@H](CO)C(N)=O,,,"healthy subjects, single ascending dose","8.0 mg, day 29",relative to: baseline,systolic blood pressure change,5.27 mmHg
C=C(C)[C@@H]1CC[C@]2(C(=O)NCCCCCCCCCNC(=O)[C@H](CC(N)=O)NC(=O)OC(C)(C)C)CC[C@]3(C)[C@H](CC[C@@H]4[C@@]5(C)CC[C@H](OC(=O)CC(C)(C)C(=O)O)C(C)(C)[C@@H]5CC[C@]43C)[C@@H]12,Human immunodeficiency virus 1,"viral replication, ELISA","MT4, NL43",96 h,,IC50,≤ 0.05 µM
Cc1nc(C(CN)NC(=O)c2ccc(-c3ccc4c(c3)OCO4)[nH]2)sc1CO (stereo not drawn),human immunodeficiency virus 1,viral replication,PBMC,168 h,,IC50,2.8 ± 0.6 µM
N#CC(C#N)=NNc1ccc(OC(F)(F)F)cc1,Plasmodium falciparum,parasite growth,K1,,,IC50,18.3 µM
CC1(C)CC(NC(=O)C(=O)Nc2ccc(Cl)cc2)CC(C)(C)N1,HIV-1,viral entry,"TZM-bl, panel of 56 Env pseudoviruses",,,IC50,1.9 to 27.8 µM
CCc1c(C(=O)C(N)=O)c2c(OCC(=O)O)cccc2n1Cc1ccccc1,,,mouse,"120 µg/mouse, observed up to 24 h, together with: Daboia russelii venom, West, preincubated",,time of death,> 24 h
CC[C@H](C)[C@H](NC(=O)[C@H](C)NC(=O)CNC(=O)[C@H](Cc1ccccc1)NC(=O)[C@@H](NC(=O)[C@H](CCC(N)=O)NC(=O)[C@H](Cc1c[nH]cn1)NC(=O)[C@H](CC(C)C)NC(=O)[C@H](C)NC(=O)[C@H](CCCCN)NC(=O)CNC(=O)[C@@H](NC(=O)[C@H](CO)NC(=O)[C@@H](NC(=O)[C@H](Cc1ccccc1)NC(=O)[C@@H](NC(=O)CNC(=O)CNC(=O)[C@H](CC(C)C)NC(=O)[C@H](CO)NC(=O)CNC(=O)[C@H](Cc1ccccc1)NC(=O)[C@H](CC(=O)O)NC(=O)[C@H](Cc1c[nH]c2ccccc12)NC(=O)[C@H](C)NC(=O)[C@@H](NC(=O)[C@H](CC(=O)O)NC(=O)CNC(=O)[C@H](CC(C)C)NC(=O)[C@@H](NC(=O)[C@H](C)NC(=O)[C@@H](N)CCSC)[C@@H](C)CC)[C@@H](C)O)C(C)C)[C@@H](C)O)[C@@H](C)CC)C(C)C)C(=O)N[C@@H](Cc1ccc(O)cc1)C(=O)O,dengue virus,"viral replication, plaque reduction","LLC-MK2, New Guinea-2",,,IC50,~10 µM
C=C[C@]1(CO)O[C@@H](n2cnc3c(N)nc(N)nc32)C[C@@H]1O,HIV-1 M184V,MTT,MT4,,,IC50,> 1 µM
COc1ccccc1C(=O)Nc1ccccc1Sc1ccc([N+](=O)[O-])cc1,HIV-1,"viral replication, measured: RT activity","H9 expressing A3G, LAI, X4-tropic wild type",day 7,,IC50,5.5 µM
C#C[C@]1(CO)O[C@@H](n2ccc(N)nc2=O)C[C@@H]1O,HIV-1 K65R,MTT,MT4,,,IC50,0.0102 ± 0.004 µM
Nc1ncnc2c([C@@H]3N[C@H](CO)[C@@H](O)[C@H]3O)c[nH]c12,Zaire ebolavirus,viral replication,"HeLa, Kikwit",25 µM,,inhibition,94.1%
Cn1cnc(Cn2c(=O)[nH]/c(=N\c3cc4cn(C)nc4cc3Cl)n(Cc3cc(F)c(F)cc3F)c2=O)n1,,,"human, mild renal impairment, plasma","oral, 375 mg single dose",,terminal elimination rate constant,3.69e-06 s⁻¹
COc1ccccc1NC(=O)c1ccccc1Sc1ccc([N+](=O)[O-])cc1,HIV-1,"viral replication, measured: RT activity","H9 expressing A3G, LAI, X4-tropic wild type",day 7,,IC50,6 µM
C[C@]1(CO)O[C@@H](n2cnc3c(N)nc(N)nc32)C[C@@H]1O,HIV-1 K65R,MTT,MT4,,,IC50,0.0971 ± 0.0756 µM
COc1ccccc1-c1cccc(CN2CCCC(C(=O)NCc3ccc(F)cc3)C2)c1 (stereo not drawn),SARS-CoV-2,cytopathic effect,USA_WA1/2020,"retest, 8-point, duplicates",,maximum response,74.1%
CNC(=O)[C@@H](NC(=O)[C@H](CC(C)C)[C@H](O)C(=O)NO)C(C)(C)C,human fibrinogen,SDS-PAGE,Daboia russelii,"concentration not given, unit not given, together with: KA venom",relative to: untreated fibrinogen,remaining fibrinogen Aα chain,0.634
N#C[C@]1(CO)O[C@@H](n2cnc3c(N)nc(N)nc32)C[C@@H]1O,HIV-1 M184V,MTT,MT4,,,IC50,0.0044 ± 0.0032 µM
O=C(Nc1ccccc1CO)c1ccccc1Sc1ccc([N+](=O)[O-])cc1,HIV-1,"viral replication, measured: RT activity","H9 expressing A3G, LAI, X4-tropic wild type",day 7,,IC50,112 µM

# Repeated from above:
SMILES,target or system,assay,test system,conditions,how to read,endpoint,result
COc1ccccc1C(=O)Nc1ccccc1Sc1ccc([N+](=O)[O-])cc1,HIV-1,"viral replication, measured: RT activity","H9 expressing A3G, LAI, X4-tropic wild type",day 7,,IC50,5.5 µM
C#C[C@]1(CO)O[C@@H](n2ccc(N)nc2=O)C[C@@H]1O,HIV-1 K65R,MTT,MT4,,,IC50,0.0102 ± 0.004 µM
Nc1ncnc2c([C@@H]3N[C@H](CO)[C@@H](O)[C@H]3O)c[nH]c12,Zaire ebolavirus,viral replication,"HeLa, Kikwit",25 µM,,inhibition,94.1%
